Results from different studies.
Every numbered part comes from another study and shows a few of its results, in no order. Values joined by “and” are separate records of one study, mostly repeats; a detail may differ. ± gives the spread as reported. ≈ marks a conversion by molar mass, not a printed value.
Chain of UniProt P41143 (whole entry, looked up): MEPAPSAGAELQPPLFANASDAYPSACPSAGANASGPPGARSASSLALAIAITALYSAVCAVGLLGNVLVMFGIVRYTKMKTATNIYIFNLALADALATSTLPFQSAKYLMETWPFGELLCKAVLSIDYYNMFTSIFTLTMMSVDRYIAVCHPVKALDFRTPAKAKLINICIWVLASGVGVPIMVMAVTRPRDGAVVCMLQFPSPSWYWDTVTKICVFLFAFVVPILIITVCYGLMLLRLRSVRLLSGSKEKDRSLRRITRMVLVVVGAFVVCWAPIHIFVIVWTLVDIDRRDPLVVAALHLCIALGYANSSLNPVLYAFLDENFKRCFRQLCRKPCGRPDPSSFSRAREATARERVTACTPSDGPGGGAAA
Chain of UniProt Q96SW2 (whole entry, looked up): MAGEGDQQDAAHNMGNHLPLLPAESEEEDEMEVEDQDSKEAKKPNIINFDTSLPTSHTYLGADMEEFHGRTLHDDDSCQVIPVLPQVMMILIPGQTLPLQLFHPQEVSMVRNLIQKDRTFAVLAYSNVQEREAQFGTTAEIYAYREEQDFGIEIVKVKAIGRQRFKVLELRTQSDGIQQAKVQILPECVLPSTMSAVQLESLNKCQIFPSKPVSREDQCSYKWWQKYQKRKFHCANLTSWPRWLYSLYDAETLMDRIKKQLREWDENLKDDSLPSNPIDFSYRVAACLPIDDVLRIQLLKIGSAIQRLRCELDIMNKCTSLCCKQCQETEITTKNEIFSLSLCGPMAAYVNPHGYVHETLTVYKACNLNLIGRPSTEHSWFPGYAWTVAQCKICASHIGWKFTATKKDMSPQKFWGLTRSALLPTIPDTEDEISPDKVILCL
Chain of UniProt Q9UKS7 (whole entry, looked up): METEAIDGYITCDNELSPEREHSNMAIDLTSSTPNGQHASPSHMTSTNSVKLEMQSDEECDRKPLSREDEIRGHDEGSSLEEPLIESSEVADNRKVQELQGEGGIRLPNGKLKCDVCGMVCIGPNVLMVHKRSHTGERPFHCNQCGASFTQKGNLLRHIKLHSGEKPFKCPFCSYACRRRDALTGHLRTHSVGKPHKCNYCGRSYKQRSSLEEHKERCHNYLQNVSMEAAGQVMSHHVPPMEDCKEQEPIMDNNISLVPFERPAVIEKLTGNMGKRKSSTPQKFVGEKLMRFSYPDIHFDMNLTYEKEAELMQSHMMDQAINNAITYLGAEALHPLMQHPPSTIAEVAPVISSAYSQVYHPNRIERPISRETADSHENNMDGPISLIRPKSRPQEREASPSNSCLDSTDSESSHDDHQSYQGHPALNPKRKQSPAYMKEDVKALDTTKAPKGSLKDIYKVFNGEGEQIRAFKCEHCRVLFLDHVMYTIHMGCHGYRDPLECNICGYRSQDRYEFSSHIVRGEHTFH

Sample 1 — cell line: human cells; quantity: Emax
Compound: N=C(N)NCCCCCN1CC[C@]23c4c5ccc(O)c4O[C@H]2c2nc4ccccc4cc2C[C@@]3(O)[C@H]1C5
Delta-type opioid receptor, with GoA (OPRD1, Homo sapiens, UniProt P41143): 82 ± 3%
Delta-type opioid receptor, with Gi2 (OPRD1, Homo sapiens, UniProt P41143): 76 ± 6%
Delta-type opioid receptor, with Gz (OPRD1, Homo sapiens, UniProt P41143): 97 ± 3%
Delta-type opioid receptor, with Gi3 (OPRD1, Homo sapiens, UniProt P41143): 94 ± 3%

Sample 2 — quantity: MIC
SMILES: CCCCC[C@@H]1CC(=O)N[C@@H](C(C)C)C(=O)N[C@H](CCCNC(=N)N)C(=O)N[C@@H](C(C)C)C(=O)NCC(=O)N2CCC[C@H]2C(=O)N[C@@H](CC(C)C)C(=O)N[C@H](CCCNC(=N)N)C(=O)N[C@@H](CCC(=O)O)C(=O)N[C@H](Cc2ccc(O)cc2)C(=O)N[C@H](Cc2c[nH]c3ccccc23)C(=O)NCCCC(=O)O1
Staphylococcus aureus; USA300; together with: ubiquinone 4 µg/mL: 1 µg/mL (≈ 0.674 µM)
Staphylococcus aureus; USA300; together with: menaquinone 64 µg/mL: > 64 µg/mL
Staphylococcus aureus; USA300; together with: menaquinone 16 µg/mL: 64 µg/mL (≈ 43.1 µM)
Escherichia coli; microbial growth; 16 h: > 64 µg/mL

Sample 3 — organism: Arabidopsis thaliana; strain: Col-0; setting: seed germination, single repetition; quantity: hypocotyl length
SMILES: C=CCN1C(=O)C(O)(C(=O)O)Oc2cc(F)ccc21 (stereo not shown)
12.5 µg/mL: 1.84 cm and 1.83 cm and 1.85 cm and 1.81 cm and 1.8 cm
6.25 µg/mL: 2.01 cm and 2.02 cm and 2.03 cm and 2.09 cm
50 µg/mL: 1.52 cm and 1.51 cm and 1.53 cm and 1.55 cm

Single results of other studies
Cn1cc(-c2cccc(CN3CCC4(CC3)COc3c4ccc4c3CN([C@H]3CCC(=O)NC3=O)C4=O)c2)cn1 — IL-2 level (Jurkat; 100 nM, 24 h, together with: CD3/CD28 beads, 1:4): 162 pg/mL and 160 pg/mL and 156 pg/mL
O=C1CCC(N2Cc3c(ccc4c3OCC43CCN(Cc4ccccc4)CC3O)C2=O)C(=O)N1 (stereo not shown) — protein remaining (CRBN/Zinc finger protein Helios (Homo sapiens, UniProt Q96SW2+Q9UKS7); degrader, HiBiT; HEK293; 370.37 nM): 83.7%

For quick reference, copied from above (sample 2):
Escherichia coli; microbial growth; 16 h: > 64 µg/mL
